# Measurements gathered from unrelated publications.
# ± gives the spread as reported.
SMILES,test system,setting,half-life [min]
O=C(c1ccc2ncc(-c3ccc4c(=O)[nH]ccc4c3)nc2c1)N1CCCCC1,"ICR/CD-1 mouse, female, mouse liver S9 fraction","2 µM, pH 7.5",> 240
Cc1c2oc3c(C)ccc(C(=O)N[C@@H]4C(=O)N[C@H](C(C)C)C(=O)N5CCC[C@H]5C(=O)N(C)CC(=O)N(C)[C@@H](C(C)C)C(=O)O[C@@H]4C)c3nc-2c(C(=O)N[C@@H]2C(=O)N[C@H](C(C)C)C(=O)N3CCC[C@H]3C(=O)N(C)CC(=O)N(C)[C@@H](C(C)C)C(=O)O[C@@H]2C)c(N)c1=O,"mouse, Abcc2−/− knockout, FVB background, kidney","intravenous, 0.5 mg/kg",192
CCOc1ccc(NC(=S)N(CCO)Cc2cc3cc(C)cc(C)c3[nH]c2=O)cc1,"C57BL/6J mouse, plasma","intravenous, 3 mg/kg, with: ABT 50 mg/kg oral pretreatment 2 h before",115
CC(C)NC(=O)COc1cccc(-c2nc(Nc3ccc4[nH]ncc4c3)c3ccccc3n2)c1,"male C57BL/6 mouse, brain","oral, 100 mg/kg, one-compartment model",127
O=C(c1ccc2ncc(-c3ccc4cnccc4c3)nc2c1)N1CCCCC1,"ICR/CD-1 mouse, female, liver S9","2 µM, pH 7.5",11
CNC(=O)c1cc(Oc2ccc(NC(=O)Nc3ccc(Cl)c(C(F)(F)F)c3)cc2)ccn1,"nude mouse, LM3 tumour xenograft, subcutaneous tumour","intratumoral, PXR siRNA",3020 ± 214
CSc1cc(C)nc(SC)c1NC(=O)CN1CCN(CCSc2nc3ccccc3[nH]2)CC1.Cl,"CD-1 mouse, female, olfactory bulb","intranasal, 32.4 µg/10 µL, 7 days repeated",7.93
Nc1ccn([C@@H]2O[C@H](CO)[C@@H](O)C2(F)F)c(=O)n1,"BALB/c mouse, male, plasma","intravenous, 38 µmol/kg",87.6 ± 31.8

# Repeated from above:
SMILES,test system,setting,half-life [min]
O=C(c1ccc2ncc(-c3ccc4c(=O)[nH]ccc4c3)nc2c1)N1CCCCC1,"ICR/CD-1 mouse, female, mouse liver S9 fraction","2 µM, pH 7.5",> 240
